{"data": "Measurements of several laboratories", "note": "Numbered parts are unrelated; each lists some results of a single study.", "UniProt Q9H3Y6, sequence (whole entry, looked up)": "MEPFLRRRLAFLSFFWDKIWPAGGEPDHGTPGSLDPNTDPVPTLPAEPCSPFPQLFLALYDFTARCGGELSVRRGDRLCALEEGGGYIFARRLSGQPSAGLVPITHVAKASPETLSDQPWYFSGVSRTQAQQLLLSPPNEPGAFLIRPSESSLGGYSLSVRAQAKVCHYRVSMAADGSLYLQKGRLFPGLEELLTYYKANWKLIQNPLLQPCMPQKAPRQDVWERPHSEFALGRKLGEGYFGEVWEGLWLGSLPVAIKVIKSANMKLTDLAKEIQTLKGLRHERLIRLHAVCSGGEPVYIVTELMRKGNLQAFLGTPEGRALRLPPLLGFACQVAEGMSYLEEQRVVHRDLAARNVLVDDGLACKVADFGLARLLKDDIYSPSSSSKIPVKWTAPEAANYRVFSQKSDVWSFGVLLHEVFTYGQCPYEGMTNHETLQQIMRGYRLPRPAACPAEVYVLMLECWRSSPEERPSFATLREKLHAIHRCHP", "UniProt Q16816, sequence (whole entry, looked up)": "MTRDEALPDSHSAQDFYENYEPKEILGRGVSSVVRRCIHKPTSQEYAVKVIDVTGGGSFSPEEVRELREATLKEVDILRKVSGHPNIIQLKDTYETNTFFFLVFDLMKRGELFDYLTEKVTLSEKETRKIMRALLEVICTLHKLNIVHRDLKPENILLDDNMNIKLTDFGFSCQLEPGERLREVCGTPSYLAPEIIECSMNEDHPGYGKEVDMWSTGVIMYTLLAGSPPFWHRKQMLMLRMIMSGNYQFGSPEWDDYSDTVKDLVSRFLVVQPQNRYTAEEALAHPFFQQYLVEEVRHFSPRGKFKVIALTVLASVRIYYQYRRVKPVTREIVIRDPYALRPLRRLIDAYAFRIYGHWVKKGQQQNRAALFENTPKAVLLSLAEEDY", "UniProt P42336, sequence (whole entry, unmodified, looked up)": "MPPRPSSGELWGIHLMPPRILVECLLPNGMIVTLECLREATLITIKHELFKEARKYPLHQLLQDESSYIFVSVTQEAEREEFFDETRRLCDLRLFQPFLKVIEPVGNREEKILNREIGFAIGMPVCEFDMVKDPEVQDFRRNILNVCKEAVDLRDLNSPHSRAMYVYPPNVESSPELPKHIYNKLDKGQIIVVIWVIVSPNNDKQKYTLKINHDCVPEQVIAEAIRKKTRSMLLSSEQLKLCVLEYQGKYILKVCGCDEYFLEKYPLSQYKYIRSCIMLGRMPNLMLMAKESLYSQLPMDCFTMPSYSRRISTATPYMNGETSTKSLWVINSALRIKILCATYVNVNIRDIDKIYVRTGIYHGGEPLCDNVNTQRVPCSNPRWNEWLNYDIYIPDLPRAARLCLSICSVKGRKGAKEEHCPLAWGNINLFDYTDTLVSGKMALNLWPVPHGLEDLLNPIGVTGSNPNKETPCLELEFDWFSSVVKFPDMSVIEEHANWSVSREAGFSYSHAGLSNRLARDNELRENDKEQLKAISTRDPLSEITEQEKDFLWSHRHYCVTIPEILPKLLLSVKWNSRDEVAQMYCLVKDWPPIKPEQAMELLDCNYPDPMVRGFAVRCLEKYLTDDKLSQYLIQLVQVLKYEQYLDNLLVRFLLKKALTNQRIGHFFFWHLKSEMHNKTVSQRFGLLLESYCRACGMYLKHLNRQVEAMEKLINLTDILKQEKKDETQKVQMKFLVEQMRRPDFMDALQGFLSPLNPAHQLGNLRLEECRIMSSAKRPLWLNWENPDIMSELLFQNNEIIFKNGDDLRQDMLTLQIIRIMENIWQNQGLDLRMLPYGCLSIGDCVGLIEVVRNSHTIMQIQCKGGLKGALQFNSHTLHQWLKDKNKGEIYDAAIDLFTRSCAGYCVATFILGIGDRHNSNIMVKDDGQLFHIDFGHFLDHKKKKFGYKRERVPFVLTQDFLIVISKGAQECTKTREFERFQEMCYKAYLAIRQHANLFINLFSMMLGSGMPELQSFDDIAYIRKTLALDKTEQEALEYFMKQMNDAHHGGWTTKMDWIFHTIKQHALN", "UniProt O75582, sequence (whole entry, looked up)": "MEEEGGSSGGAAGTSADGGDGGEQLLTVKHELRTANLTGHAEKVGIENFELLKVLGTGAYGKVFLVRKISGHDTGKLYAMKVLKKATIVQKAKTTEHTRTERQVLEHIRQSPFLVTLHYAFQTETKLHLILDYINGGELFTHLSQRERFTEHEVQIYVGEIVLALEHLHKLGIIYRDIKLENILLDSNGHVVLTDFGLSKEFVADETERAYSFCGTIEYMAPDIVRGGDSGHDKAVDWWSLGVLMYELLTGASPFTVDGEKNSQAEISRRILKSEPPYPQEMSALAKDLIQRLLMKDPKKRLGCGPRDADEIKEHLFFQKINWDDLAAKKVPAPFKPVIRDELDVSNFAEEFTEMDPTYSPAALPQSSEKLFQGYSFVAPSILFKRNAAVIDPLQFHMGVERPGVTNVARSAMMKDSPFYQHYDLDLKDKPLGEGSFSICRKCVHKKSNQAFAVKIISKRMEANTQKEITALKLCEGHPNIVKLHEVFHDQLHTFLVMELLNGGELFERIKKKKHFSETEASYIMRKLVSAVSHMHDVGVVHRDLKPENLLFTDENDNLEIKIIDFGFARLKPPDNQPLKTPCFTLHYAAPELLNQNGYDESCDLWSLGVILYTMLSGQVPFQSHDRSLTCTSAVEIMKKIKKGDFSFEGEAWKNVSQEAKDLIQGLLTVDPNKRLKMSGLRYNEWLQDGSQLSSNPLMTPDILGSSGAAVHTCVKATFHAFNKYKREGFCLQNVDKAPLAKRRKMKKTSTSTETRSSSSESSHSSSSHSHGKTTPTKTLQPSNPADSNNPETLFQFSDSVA", "UniProt P11309, sequence (whole entry, looked up)": "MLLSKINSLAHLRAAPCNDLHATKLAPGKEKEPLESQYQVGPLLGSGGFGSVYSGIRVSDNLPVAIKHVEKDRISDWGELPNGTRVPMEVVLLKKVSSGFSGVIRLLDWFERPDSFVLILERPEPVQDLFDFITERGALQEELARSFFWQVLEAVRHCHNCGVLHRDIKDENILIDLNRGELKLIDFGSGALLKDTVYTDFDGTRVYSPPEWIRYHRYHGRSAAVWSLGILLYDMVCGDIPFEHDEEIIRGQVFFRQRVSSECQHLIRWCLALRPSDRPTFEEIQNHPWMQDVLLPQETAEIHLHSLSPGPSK", "UniProt P11802, sequence (whole entry, looked up)": "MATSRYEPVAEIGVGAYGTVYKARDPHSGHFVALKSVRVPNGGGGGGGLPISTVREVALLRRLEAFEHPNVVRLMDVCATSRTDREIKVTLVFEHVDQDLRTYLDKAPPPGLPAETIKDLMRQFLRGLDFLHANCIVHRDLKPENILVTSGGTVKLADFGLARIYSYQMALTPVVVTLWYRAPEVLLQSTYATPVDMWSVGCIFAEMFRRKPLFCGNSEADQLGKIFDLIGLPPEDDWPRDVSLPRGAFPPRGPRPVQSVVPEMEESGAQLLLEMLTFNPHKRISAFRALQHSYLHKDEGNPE", "UniProt Q13554, sequence (whole entry, looked up)": "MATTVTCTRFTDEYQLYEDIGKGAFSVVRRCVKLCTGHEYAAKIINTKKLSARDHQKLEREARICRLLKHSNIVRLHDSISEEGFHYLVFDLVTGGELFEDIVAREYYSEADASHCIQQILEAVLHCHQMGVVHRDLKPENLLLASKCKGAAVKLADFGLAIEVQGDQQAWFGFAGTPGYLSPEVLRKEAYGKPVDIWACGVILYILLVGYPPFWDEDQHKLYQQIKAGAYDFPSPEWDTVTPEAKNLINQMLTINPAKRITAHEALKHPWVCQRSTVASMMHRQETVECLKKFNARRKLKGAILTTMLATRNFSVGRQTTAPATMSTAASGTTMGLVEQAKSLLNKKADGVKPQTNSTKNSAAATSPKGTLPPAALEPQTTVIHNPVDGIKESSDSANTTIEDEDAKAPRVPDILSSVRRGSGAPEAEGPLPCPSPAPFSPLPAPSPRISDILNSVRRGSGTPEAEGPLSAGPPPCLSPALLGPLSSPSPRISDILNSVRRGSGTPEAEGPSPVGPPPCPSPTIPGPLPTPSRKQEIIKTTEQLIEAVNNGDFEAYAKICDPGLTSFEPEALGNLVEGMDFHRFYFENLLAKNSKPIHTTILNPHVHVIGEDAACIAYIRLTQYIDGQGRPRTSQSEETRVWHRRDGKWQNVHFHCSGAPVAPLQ", "UniProt P51451, sequence (whole entry, looked up)": "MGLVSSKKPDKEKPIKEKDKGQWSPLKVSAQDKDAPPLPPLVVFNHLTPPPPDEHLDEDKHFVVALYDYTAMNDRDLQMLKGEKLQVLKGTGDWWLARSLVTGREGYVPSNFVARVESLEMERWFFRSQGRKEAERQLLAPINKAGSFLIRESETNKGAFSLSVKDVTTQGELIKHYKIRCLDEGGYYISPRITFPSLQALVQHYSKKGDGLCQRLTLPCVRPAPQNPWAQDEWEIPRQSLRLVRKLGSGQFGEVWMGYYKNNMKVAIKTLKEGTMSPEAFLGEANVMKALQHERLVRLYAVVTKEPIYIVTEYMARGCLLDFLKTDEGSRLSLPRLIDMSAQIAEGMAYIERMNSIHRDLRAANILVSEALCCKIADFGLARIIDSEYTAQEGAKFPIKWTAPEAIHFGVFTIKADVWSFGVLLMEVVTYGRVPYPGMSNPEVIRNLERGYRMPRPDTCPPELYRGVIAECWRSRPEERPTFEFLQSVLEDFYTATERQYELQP", "UniProt Q9NWZ3, sequence (whole entry, looked up)": "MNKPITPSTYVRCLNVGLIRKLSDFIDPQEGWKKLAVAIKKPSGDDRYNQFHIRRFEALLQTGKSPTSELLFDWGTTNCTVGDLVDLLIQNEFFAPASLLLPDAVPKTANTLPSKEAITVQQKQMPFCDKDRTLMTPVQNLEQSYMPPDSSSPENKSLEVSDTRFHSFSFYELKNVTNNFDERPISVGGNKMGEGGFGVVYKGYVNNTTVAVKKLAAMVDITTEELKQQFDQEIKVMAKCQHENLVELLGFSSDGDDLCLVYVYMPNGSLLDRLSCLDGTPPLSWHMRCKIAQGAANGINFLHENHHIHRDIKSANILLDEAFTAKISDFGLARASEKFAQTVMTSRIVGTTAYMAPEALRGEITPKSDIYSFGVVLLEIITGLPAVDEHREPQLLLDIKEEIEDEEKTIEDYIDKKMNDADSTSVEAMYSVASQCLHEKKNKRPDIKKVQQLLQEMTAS"}
{"data": "Series 1", "SMILES": "CC(C)n1cnc(-c2ccc(F)cc2)c1-c1ncc(C(=O)Nc2ccc(N3CCN(C)CC3)cc2)[nH]1"}
{"assay": "measured: abnormal liver function test, grade 5", "system": "idiopathic pulmonary fibrosis patients", "conditions": "dose not given, all compound arms pooled", "patients with adverse event [%]": 0}
{"assay": "Phase 2a trial, measured: respiratory, thoracic, mediastinal disorders", "system": "human, idiopathic pulmonary fibrosis", "conditions": "all compound arms, grade 5", "patients with adverse event [%]": 0}
{"assay": "Phase 2a trial, measured: hyperuricaemia", "system": "human, idiopathic pulmonary fibrosis", "conditions": "60 mg once daily, grade 5", "patients with adverse event [%]": 0}
{"assay": "Phase 2a trial, measured: blood creatine phosphokinase increased", "system": "human, idiopathic pulmonary fibrosis", "conditions": "all compound arms total, grade 2", "patients with adverse event [%]": 0}
{"assay": "Phase 2a trial, measured: blood urea increased", "system": "human, idiopathic pulmonary fibrosis", "conditions": "30 mg once daily, grade 3", "patients with adverse event [%]": 0}
{"assay": "Phase 2a trial, measured: blood fibrinogen increased", "system": "human, idiopathic pulmonary fibrosis", "conditions": "30 mg once daily, grade 4", "patients with adverse event [%]": 0}
{"assay": "measured: periorbital oedema, grade 5", "system": "idiopathic pulmonary fibrosis patients", "conditions": "oral, 30 mg once daily", "patients with adverse event [%]": 0}
{"assay": "Phase 2a trial, measured: blood lactate dehydrogenase increased", "system": "human, idiopathic pulmonary fibrosis", "conditions": "30 mg once daily, grade 1", "patients with adverse event [%]": 0}
{"assay": "Phase 2a trial, measured: hepatic steatosis", "system": "human, idiopathic pulmonary fibrosis", "conditions": "all compound arms total, grade 4", "patients with adverse event [%]": 0}
{"assay": "Phase 2a trial, measured: hypocalcaemia", "system": "human, idiopathic pulmonary fibrosis", "conditions": "60 mg once daily, grade 5", "patients with adverse event [%]": 0}
{"assay": "Phase 2a trial, measured: blood fibrinogen increased", "system": "human, idiopathic pulmonary fibrosis", "conditions": "30 mg once daily, grade 2", "patients with adverse event [%]": 0}
{"assay": "Phase 2a trial, measured: hypertriglyceridaemia", "system": "human, idiopathic pulmonary fibrosis", "conditions": "30 mg once daily, grade 1", "patients with adverse event [%]": 0}
{"assay": "Phase 2a trial, measured: blood fibrinogen increased", "system": "human, idiopathic pulmonary fibrosis", "conditions": "60 mg once daily, grade 2", "patients with adverse event [%]": 0}
{"data": "Series 2", "SMILES": "COc1ccc2[nH]c3c4[nH]c5ccc(OC)cc5c4c4c(c3c2c1)C(=O)NC4=O", "read-out": "binding", "concentration": "1 µM"}
{"target": "SIK1 (Homo sapiens, UniProt P57059)", "assay": "competition with immobilised ligand", "remaining binding [%]": 67}
{"target": "SRMS (Homo sapiens, UniProt Q9H3Y6)", "assay": "competition with immobilised ligand", "remaining binding [%]": 100}
{"target": "PIK3CA (Homo sapiens, UniProt P42336, C420R)", "remaining binding [%]": 90}
{"target": "PIM1 (Homo sapiens, UniProt P11309)", "remaining binding [%]": 46}
{"target": "EPHB3 (Homo sapiens, UniProt P54753)", "assay": "competition with immobilised ligand", "remaining binding [%]": 85}
{"target": "ALK (Homo sapiens, UniProt Q9UM73, C1156Y)", "remaining binding [%]": 25}
{"data": "Series 3", "Compound": "Cc1noc([C@H]2C[C@@H](c3ccc(C(F)(F)F)cc3)CN(C(=O)N3CCS(=O)(=O)C3)C2)n1", "read-out": "cell-free assay", "technique": "competition with immobilised ligand", "concentration": "1 µM"}
{"target": "FGFR3 (Homo sapiens, UniProt P22607, G697C)", "remaining binding [%]": 84}
{"target": "MAP3K9 (Homo sapiens, UniProt P80192)", "remaining binding [%]": 100}
{"target": "EGFR (Homo sapiens, UniProt P00533)", "remaining binding [%]": 100}
{"target": "PIK3CG (Homo sapiens, UniProt P48736)", "remaining binding [%]": 85}
{"target": "Tyrosine-protein kinase ABL1, phosphorylated (ABL1, Homo sapiens, UniProt P00519, T315I)", "remaining binding [%]": 69}
{"target": "PIM2 (Homo sapiens, UniProt Q9P1W9)", "remaining binding [%]": 100}
{"target": "FYN (Homo sapiens, UniProt P06241)", "remaining binding [%]": 94}
{"target": "IRAK4 (Homo sapiens, UniProt Q9NWZ3)", "remaining binding [%]": 83}
{"target": "NTRK1 (Homo sapiens, UniProt P04629)", "remaining binding [%]": 90}
{"target": "OXSR1 (Homo sapiens, UniProt O95747)", "remaining binding [%]": 89}
{"target": "STK33 (Homo sapiens, UniProt Q9BYT3)", "remaining binding [%]": 100}
{"target": "PRKD1 (Homo sapiens, UniProt Q15139)", "remaining binding [%]": 100}
{"target": "Cyclin-dependent kinase 4, with cyclin D1 (CDK4, Homo sapiens, UniProt P11802)", "remaining binding [%]": 100}
{"target": "RIOK2 (Homo sapiens, UniProt Q9BVS4)", "remaining binding [%]": 100}
{"target": "PRKD2 (Homo sapiens, UniProt Q9BZL6)", "remaining binding [%]": 100}
{"target": "PHKG1 (Homo sapiens, UniProt Q16816)", "remaining binding [%]": 100}
{"target": "PIK3CA (Homo sapiens, UniProt P42336, C420R)", "remaining binding [%]": 84}
{"data": "Series 4", "SMILES": "Oc1ccc(Nc2nc(-c3ccc(Cl)cc3)cs2)cc1", "read-out": "enzyme activity", "mode": "inhibitor", "concentration": "0.5 µM", "baseline": "control"}
{"target": "MAP4K4 (Homo sapiens, UniProt O95819)", "remaining activity [%]": 88.9}
{"target": "EPHB4 (Homo sapiens, UniProt P54760)", "remaining activity [%]": 89.6}
{"target": "SRMS (Homo sapiens, UniProt Q9H3Y6)", "remaining activity [%]": 106}
{"target": "WNK3 (Homo sapiens, UniProt Q9BYP7)", "remaining activity [%]": 98.7}
{"target": "RPS6KA6 (Homo sapiens, UniProt Q9UK32)", "remaining activity [%]": 117}
{"target": "DYRK3 (Homo sapiens, UniProt O43781)", "remaining activity [%]": 101}
{"target": "EPHB1 (Homo sapiens, UniProt P54762)", "remaining activity [%]": 105}
{"target": "PRKACG (Homo sapiens, UniProt P22612)", "remaining activity [%]": 112}
{"target": "Cyclin-dependent kinase 6, with cyclin D3 (CDK6, Homo sapiens, UniProt Q00534)", "remaining activity [%]": 109}
{"target": "HIPK2 (Homo sapiens, UniProt Q9H2X6)", "remaining activity [%]": 90.9}
{"target": "Cyclin-dependent kinase 1, with cyclin B (CDK1, Homo sapiens, UniProt P06493)", "remaining activity [%]": 109}
{"target": "ABL1 (Homo sapiens, UniProt P00519)", "remaining activity [%]": 99.7}
{"target": "BLK (Homo sapiens, UniProt P51451)", "remaining activity [%]": 100}
{"target": "PHKG1 (Homo sapiens, UniProt Q16816)", "remaining activity [%]": 96.5}
{"target": "PDPK1 (Homo sapiens, UniProt O15530)", "remaining activity [%]": 101}
{"target": "TSSK2 (Homo sapiens, UniProt Q96PF2)", "remaining activity [%]": 102}
{"target": "CAMK2B (Homo sapiens, UniProt Q13554)", "remaining activity [%]": 85.8}
{"target": "MAPKAPK3 (Homo sapiens, UniProt Q16644)", "remaining activity [%]": 94.1}
{"target": "STK16 (Homo sapiens, UniProt O75716)", "remaining activity [%]": 106}
{"target": "STK17A (Homo sapiens, UniProt Q9UEE5)", "remaining activity [%]": 98.7}
{"target": "AXL (Homo sapiens, UniProt P30530)", "remaining activity [%]": 98.5}
{"target": "EPHA4 (Homo sapiens, UniProt P54764)", "remaining activity [%]": 104}
{"target": "HIPK4 (Homo sapiens, UniProt Q8NE63)", "remaining activity [%]": 101}
{"target": "RPS6KA5 (Homo sapiens, UniProt O75582)", "remaining activity [%]": 109}
{"note": "A few entries again (series 2):"}
{"target": "PIM1 (Homo sapiens, UniProt P11309)", "remaining binding [%]": 46}
{"target": "ALK (Homo sapiens, UniProt Q9UM73, C1156Y)", "remaining binding [%]": 25}
{"target": "EPHB3 (Homo sapiens, UniProt P54753)", "assay": "competition with immobilised ligand", "remaining binding [%]": 85}
{"target": "PIK3CA (Homo sapiens, UniProt P42336, C420R)", "remaining binding [%]": 90}
{"target": "SRMS (Homo sapiens, UniProt Q9H3Y6)", "assay": "competition with immobilised ligand", "remaining binding [%]": 100}
{"target": "SIK1 (Homo sapiens, UniProt P57059)", "assay": "competition with immobilised ligand", "remaining binding [%]": 67}
